Published values pooled from the literature.
Numbered parts are unrelated; each lists some results of a single study. Changes are numbered by the printed parent chain.

Sample 1
Target: ABI1, truncated, D143A, DHFR fusion (Arabidopsis thaliana)
Method: DHFR PCA, deep sequencing
Matrix: yeast
Notes: methotrexate growth selection, single substitutions
Together with: (+)-ABA 17 µM
Relative to: wild-type fitted maximum
Direction: higher = stronger binding
Starting sequence: PYL1, truncated, DHFR fusion (Arabidopsis thaliana); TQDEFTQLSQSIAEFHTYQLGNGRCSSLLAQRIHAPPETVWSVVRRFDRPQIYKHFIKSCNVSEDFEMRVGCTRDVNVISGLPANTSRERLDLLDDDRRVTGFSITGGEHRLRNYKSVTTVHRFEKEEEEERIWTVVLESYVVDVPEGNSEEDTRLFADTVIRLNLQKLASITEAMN
Variant	relative binding score [%]
E152N	74.6
I79E	36.2
T160H	66.9
K126Y	86.2
V100A	87.6
S150P	4.7
V62M	69.4
I172Y	82.7

Sample 2
Target: Prothrombin, mature alpha-thrombin (F2, Homo sapiens, UniProt P00734)
Method: aptamer microarray, sandwich
Molecule type: DNA with 2'F-ANA
Matrix: in vitro
Concentration: 200 nM
Notes: whole 15-mer aptamer, many near background
Together with: Cy3 exosite-II aptamer, 400 nM
Direction: higher = stronger binding
Strand: GGTTGGTGTGGTTGG
Modification	mean fluorescence intensity
2'F-ANA at 1 3 4 8 9	244 a.u.
2'F-ANA at 1 2 5 10 11 13 14 15	44.7 a.u.
2'F-ANA at 2 5 7 8 10 12 13 14	46 a.u.
2'F-ANA at 1 2 4 5 6 10 11 12	61.7 a.u.
2'F-ANA at 1 2 4 5 6 8 10 13	62.9 a.u.
2'F-ANA at 1 2 3 4 7 10 13 14	47.9 a.u.
2'F-ANA at 4 5 6 9 11 13	53.2 a.u.
2'F-ANA at 3 4 5 8 9 10 13 14	73.3 a.u.

Sample 3
Target: CCND2, cyclin fold, Cln2 fusion (human)
Method: yeast growth competition, sequencing
Matrix: yeast
Notes: weak parent motif
Relative to: not given
Direction: higher = stronger binding
Starting sequence: viral docking peptide; KKVKRRLFETREL; partner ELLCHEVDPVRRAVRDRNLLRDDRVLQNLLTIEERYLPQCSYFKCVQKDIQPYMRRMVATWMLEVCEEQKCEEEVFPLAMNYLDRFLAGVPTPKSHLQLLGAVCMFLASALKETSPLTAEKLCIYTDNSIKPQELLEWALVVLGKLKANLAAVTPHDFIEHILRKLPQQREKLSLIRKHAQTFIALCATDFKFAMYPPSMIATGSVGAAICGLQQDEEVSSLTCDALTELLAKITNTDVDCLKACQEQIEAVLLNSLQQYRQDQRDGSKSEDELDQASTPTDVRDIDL
Variant	normalised enrichment score
T10A	0.115
R6A	-0.0849
F8L	0.357
V3A	0.346
K4A	-0.22
L13A	-0.0714
R11A	0.00203

Other studies, line by line
Method: cross-linking MS
Matrix: cell fractions
Molecule	partner	together with	cross-linked residues
MTA1 (Homo sapiens, UniProt Q13330)	RBBP7 (Homo sapiens, UniProt Q16576)	DMTMM	K532 to E351
NUP43 (Homo sapiens, UniProt Q8NFH3)	SEH1L (Homo sapiens, UniProt Q96EE3)	DSSO	K161 to K96
ACAD9 (Homo sapiens, UniProt Q9H845)	NDUFAF1 (Homo sapiens, UniProt Q9Y375)	DSSO	K608 to K253

Excerpt of the above (sample 2):
Modification	mean fluorescence intensity
2'F-ANA at 4 5 6 9 11 13	53.2 a.u.
2'F-ANA at 1 2 5 10 11 13 14 15	44.7 a.u.
2'F-ANA at 1 2 4 5 6 8 10 13	62.9 a.u.
